Published values from different studies.
Parts stem from different laboratories: compare values within a part only. Changes are numbered by the printed parent chain.

Block 1
Target: RNA binding protein fox-1 homolog 2, RRM domain, GST-SBP tag (RBFOX2, Homo sapiens, UniProt O43251-10, residues 100-194)
Method: RNA Bind-n-Seq
Form: RNA
Sample: in vitro
Concentration: 365 nM
Notes: natural RNA segment, single round, ends assumed
Reference: no-protein control
Reading: higher = stronger binding
Shared flanks, not repeated: GGGAGUUCUACAGUCCGACGAUC … UGGAAUUCUCGGGUGCCAA
Residues (chain): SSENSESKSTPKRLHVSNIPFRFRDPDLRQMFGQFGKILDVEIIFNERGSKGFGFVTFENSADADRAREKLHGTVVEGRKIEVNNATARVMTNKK
`UCAUCUCAUAAUAGAAACACAUUCGUAUUCUAAUGAUCAAUCUAAAGUUCCCGUUGAGGAGGAGGCCCUUCAAUUGAGACUGUCCAGAGCUGUGACAAUGCACCAUAUUG`: “RBNS enrichment (R)” 0.52.
`UAGUAGGCUUUGAGAUAAUAAACUUACCCGUGUCAAUUAACAUUUAAACUGGCAUAUAGAAAAAAAGGAGGAUUUUUCUGCAUUGUAAAAUAAUCAGUAUGGUUUAUAUG`: “RBNS enrichment (R)” 1.01.
`ACCAGUUGGGAUAAGUGUCAGAGUGAGCACCCCCUCAGCCCGUCCUCCACAAGGGACCCUUGAGAUCACUGACACAUCACCCCCAUUUCUCUGCUGGAAAAAACCAGAAU`: “RBNS enrichment (R)” 0.23.
Under “RBNS enrichment (R)”, `ACAGGCUUGCCUGGCCCCAGGGACACUACUGCUACUGUAGCUGUGGCAGGGACCAACCAGGCUGCCUGUGCCCGUCUGCUGCCUCCGAGACACCAGAGGUCUGCUGCAGA` is recorded as 0.166.
For `UAAUAAUAGUACCUAAGAGUAUUGAUGGUUUUCAUUUUUCAACCAGCACUCUAAUGCACAGCUGCUGACAAUAAAAGCCCCAACUCUUAACGGAGAUCAGUGGGAGUUAC`, “RBNS enrichment (R)” read 0.661.
`UACCUGCAUAUCUUCUUAAAAGAAAUAGCUGUUAUUAAUGCCUUUUUGUUUUCCAUUGAGUGUACACUACUGAAUAAGUGUAGGAGUUUUAUGUUUACCAUGUGAGUCCU` — result for “RBNS enrichment (R)”: 0.611.
For `GUGGGCCUGGUAGCACAUGUCUGUCCUCAGCCGGACAGAUGCUUUCUCUCCUGGUUUGCAGCUGUCUUCAAAUCCCCCCAUGACCCGCUCUUCCCACUCCUUCAAGUUGC`, “RBNS enrichment (R)” read 0.342.
`UCUCCCCACCCAGCUACUCGAAGCUCACUUCCUAAAGCUGCAGGGCUGCCUCGGGCAGGGCCUCCGGCCUCCGGCGCUCUCCCAGGAGGAGGUCAAGUUCCACACGCACG`: “RBNS enrichment (R)” 0.239.
`AAGGUAGACUCUUCCCUAGGACUGACGAGUUACGGCUGCCAGAUGCCUGCAUGGGAAGAGGUGGACAUCUGCAUCUUCCAUUGGUGGUCAAGGAUGGGUGUGGGAGAACC` — result for “RBNS enrichment (R)”: 1.12.
Under “RBNS enrichment (R)”, `AAUUGUUCUAGUUAGAAAGGGUUCAGGGCAUGGGGAGAGGAGUGGGAAAUUGAUUAAAGGGGCUGUCUCCCAAUGAAAGAGGCAUUCCCAGAAUUUGCUGCAUUUAGAUU` is recorded as 5.56.
`GGCCUGAAAAUAUUUGUGAUCCAUAACUCUACACAGCCUUUACUCAUACUAUUAGGCACACUUUCCCCUUAGAGCCCCCUAAGUUUUUCCCAGACGAAUCUUUAUAAUUU` — result for “RBNS enrichment (R)”: 0.62.
`GUUUGUUGGACUUAAACGACGAUUUGCUGCUGUGAACCCAGCAGGGUCGCCUCCCUCUGCAUCGGCCAAAUUGGGGAGGGCAUGGAAGAUCCAGCGGAAAGUUGAAAAUA`: “RBNS enrichment (R)” 3.17.

Block 2
Target: ABI1, truncated, D143A, DHFR fusion (Arabidopsis thaliana)
Method: DHFR PCA, deep sequencing
Sample: yeast
Notes: methotrexate growth selection, single substitutions
Added: (+)-ABA 710 µM
Reference: wild-type fitted maximum
Reading: higher = stronger binding
Starting sequence: PYL1, truncated, DHFR fusion (Arabidopsis thaliana); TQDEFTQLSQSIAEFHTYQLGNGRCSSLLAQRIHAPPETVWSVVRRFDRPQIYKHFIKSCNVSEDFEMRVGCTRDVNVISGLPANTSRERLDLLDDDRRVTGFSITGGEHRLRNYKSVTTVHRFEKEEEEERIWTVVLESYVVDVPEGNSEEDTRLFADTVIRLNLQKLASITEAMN
`L29A`: “relative binding score” 89.3%.
For `I105F`, “relative binding score” read 3.58%.
`Y53G`: “relative binding score” 55.7%.
`S104H` — result for “relative binding score”: 85.2%.
`W41K`: “relative binding score” 9.83%.
For `C72K`, “relative binding score” read 87.9%.
`Q19F`: “relative binding score” 98.6%.
`N85Y`: “relative binding score” 104%.
Under “relative binding score”, `L138K` is recorded as 19.2%.
Under “relative binding score”, `D153T` is recorded as 68.8%.

Block 3
Target: CCND3, cyclin fold, Cln2 fusion (human)
Method: yeast growth competition, sequencing
Sample: yeast
Notes: weak parent motif
Reference: not given
Reading: higher = stronger binding
Starting sequence: CDC25A docking peptide (human); PPHRRRLLFACSP; partner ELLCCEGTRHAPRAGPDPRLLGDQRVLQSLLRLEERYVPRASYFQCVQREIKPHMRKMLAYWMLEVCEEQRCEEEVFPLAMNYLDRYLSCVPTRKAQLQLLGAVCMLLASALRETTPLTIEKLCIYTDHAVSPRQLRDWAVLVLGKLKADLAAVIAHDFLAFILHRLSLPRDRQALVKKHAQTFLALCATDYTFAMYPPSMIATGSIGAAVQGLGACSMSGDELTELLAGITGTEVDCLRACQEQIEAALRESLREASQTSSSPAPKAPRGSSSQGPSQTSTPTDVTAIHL
Under “normalised enrichment score”, `PPHLRRLLFACSP [R4L]` is recorded as 0.192.
For `PPRRRRLLFACSP [H3R]`, “normalised enrichment score” read 0.175.
Under “normalised enrichment score”, `PPHRRRLLFACSK [P13K]` is recorded as 0.0681.
`PPHRRRLLFCCSP [A10C]`: “normalised enrichment score” 0.079.
`PPHRRRLLFACSM [P13M]`: “normalised enrichment score” 0.115.
Under “normalised enrichment score”, `PPKRRRLLFACSP [H3K]` is recorded as 0.102.
Under “normalised enrichment score”, `PPHRRRLLFICSP [A10I]` is recorded as 0.0927.
`PPHRRRLLFACYP [S12Y]` — result for “normalised enrichment score”: 0.161.
Under “normalised enrichment score”, `PPNRRRLLFACSP [H3N]` is recorded as 0.11.

Further values, each from its own experiment
The fold induction of `PhoQ, residues 284 288 289 292 302 303 SSTMSV` is reported as 2.83 (PhoP, residues 12 14 15 18 19 NQFFI (Escherichia coli, UniProt P23836); Sort-seq, refers to: YFP reporter; E. coli; PhoQ-PhoP variant library, added: 10 µM Mg2+; reference: high Mg2+ state, higher = stronger signaling).

Some of these lines once more (block 3):
`PPHRRRLLFACYP [S12Y]` — result for “normalised enrichment score”: 0.161.
Under “normalised enrichment score”, `PPHLRRLLFACSP [R4L]` is recorded as 0.192.
`PPHRRRLLFCCSP [A10C]`: “normalised enrichment score” 0.079.
For `PPRRRRLLFACSP [H3R]`, “normalised enrichment score” read 0.175.
